Assay results gathered from unrelated publications.
Numbered parts are unrelated; each lists some results of a single study. Positions count from the first letter of the parent shown.

Series 1
Target: vanadate, free oxyanion
Method: microfluidic competitive inhibition
Medium: in vitro, cell-free expressed
Concentration: not given
Notes: derived from inhibition constants, unchanged parent 676 nM
Reading: lower = stronger binding
Starting sequence: PafA, mature enzyme, eGFP fusion (Elizabethkingia meningoseptica, UniProt Q9KJX5); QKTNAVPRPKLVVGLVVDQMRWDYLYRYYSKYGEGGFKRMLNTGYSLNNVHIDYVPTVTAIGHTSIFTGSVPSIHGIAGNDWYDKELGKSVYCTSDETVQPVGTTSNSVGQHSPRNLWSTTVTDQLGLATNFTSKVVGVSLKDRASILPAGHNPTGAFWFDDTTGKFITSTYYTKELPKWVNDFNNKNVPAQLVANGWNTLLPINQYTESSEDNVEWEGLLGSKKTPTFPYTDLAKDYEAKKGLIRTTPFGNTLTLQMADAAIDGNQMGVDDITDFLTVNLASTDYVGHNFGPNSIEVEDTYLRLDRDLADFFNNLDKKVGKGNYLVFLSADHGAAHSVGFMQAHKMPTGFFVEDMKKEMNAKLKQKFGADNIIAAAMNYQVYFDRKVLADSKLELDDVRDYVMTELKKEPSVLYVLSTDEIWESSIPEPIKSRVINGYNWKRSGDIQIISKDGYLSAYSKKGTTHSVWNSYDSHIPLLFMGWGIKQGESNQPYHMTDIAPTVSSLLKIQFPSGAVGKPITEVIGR
`G251A` — result for “oxyanion analog dissociation constant”: 663 nM.
`G525A` — result for “oxyanion analog dissociation constant”: 687 nM.
Under “oxyanion analog dissociation constant”, `A282G` is recorded as 3.12 µM.

Series 2
Target: CCNB1, cyclin fold, Cln2 fusion (human)
Method: yeast growth competition, sequencing
Medium: yeast
Notes: weak parent motif
Reference: not given
Reading: higher = stronger binding
Starting sequence: viral docking peptide; PTARRRLLHDLDT
`PTARRRLLADLDT [H9A]` — result for “normalised enrichment score”: 0.867.
`PTARKRLLFDLDT [R5K H9F]`: “normalised enrichment score” 1.41.
Under “normalised enrichment score”, `PTARRRLLHDLDA [T13A]` is recorded as 0.387.
`PTARRRLLHDLAT [D12A]` — result for “normalised enrichment score”: -0.00111.
`PTARRRLLFDLDT [H9F]`: “normalised enrichment score” 1.45.
`PTARRRLLHALDT [D10A]` — result for “normalised enrichment score”: 0.121.
`PTARRRLAHDLDT [L8A]` — result for “normalised enrichment score”: -0.283.
Under “normalised enrichment score”, `PTARRALLHDLDT [R6A]` is recorded as 1.31.

Series 3
Target: RNA binding protein fox-1 homolog 2, RRM domain, GST-SBP tag (RBFOX2, Homo sapiens, UniProt O43251-10, residues 100-194)
Method: RNA Bind-n-Seq
Form: RNA
Medium: in vitro
Concentration: 365 nM
Notes: natural RNA segment, single round, ends assumed
Reference: no-protein control
Reading: higher = stronger binding
Construct (chain): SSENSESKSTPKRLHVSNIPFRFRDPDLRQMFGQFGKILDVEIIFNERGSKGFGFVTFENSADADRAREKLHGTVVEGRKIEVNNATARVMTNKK
`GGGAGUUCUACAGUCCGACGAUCGAGAGACAAUCUAAACAUUCUCUUAGGCUGCAGAUAAGAGAAGUAGGCUCCAUUCCAAAGUGGGAAAGAAAUUCUGCUAGCAUUGUUUAAAUCAGGCAAAAUUUGUUCCUUGGAAUUCUCGGGUGCCAA`: “RBNS enrichment (R)” 0.844.
`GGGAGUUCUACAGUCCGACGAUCGCGAGCUGGAAGGAAGCGCUCUCACUUUUUUUCAGGCAAUGUUGCUAGCCCUUCUAGCACACUGAGCUACGAGACUGCCAAUCUCUCUCCUGCGGCACGUUUGGGUUGGCUGGAAUUCUCGGGUGCCAA` — result for “RBNS enrichment (R)”: 0.943.
`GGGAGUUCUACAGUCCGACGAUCUGCUUGUGUGGUCCAACCUCAGUCUGGCCCCAUAGCGACUUUUGCCCCAUGAUUCUGCUUCACUGUUGGAAUCCUCUUUGAAGUUCCCCCUCUCUUUGCUAAAGCAGUGAUGGAAUUCUCGGGUGCCAA` — result for “RBNS enrichment (R)”: 0.372.
`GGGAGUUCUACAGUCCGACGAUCUAGACCAUGCCUUCCUUUGUUCAUGAAGAUGACAAAAAUGGGAGAUGAGAUGGAUCAAGGUCAAAAUGAUCCUUUAUCUACAUUUUCCAAAGAGAAUCUAAUUUUUUCAGUGGAAUUCUCGGGUGCCAA` — result for “RBNS enrichment (R)”: 0.324.
`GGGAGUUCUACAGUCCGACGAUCACCCCUCCCCACAGAGGAAGCCACUAGGAGCUUAACUCAAUUAUGGGAGAACCUUAGACACUUCACCAAAUUCUGCAAUGACAGCUGGGGUAUUUUAAAGUUUAUGAUGAUGGAAUUCUCGGGUGCCAA`: “RBNS enrichment (R)” 0.358.
Under “RBNS enrichment (R)”, `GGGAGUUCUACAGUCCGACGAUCCUUCUUUCUCAACAAUAAAAAAUGUAACUAUUUUGAAUGCCCACAAAUCCCAUUCCAGUGUUACUUUCUGUGAAUGCAGUACCAUAUUCUCAUUUUCAAUGACAUUUCAAUGGAAUUCUCGGGUGCCAA` is recorded as 0.985.
`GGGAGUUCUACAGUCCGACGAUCGAGUACUCAGGAACUUGACUGUAGUAGAAUACUGCUAGUUUCUUAAUUUUAAUUCACAUCACCUGAAAAGUAAAACAACAGGCUUUGCCAAGUGGAUGCUUUUCAGUAACUGGAAUUCUCGGGUGCCAA`: “RBNS enrichment (R)” 0.404.
`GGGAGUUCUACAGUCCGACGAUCGAAAAAGAACCAAUAAAUCACACAAUCUUUAUGUGCUUUCUAUAUGUAUUUCUUAGUAGUGAUACCAUUGAUCCUCUUACUUUUUUUACUCCAUUAAUACUAAUAAUUAUUGGAAUUCUCGGGUGCCAA`: “RBNS enrichment (R)” 0.423.

Series 4
Target: UDP-N-acetylglucosamine--peptide N-acetylglucosaminyltransferase 110 kDa subunit (OGT, Homo sapiens, UniProt O15294)
Sequence of UniProt O15294 (whole entry, looked up): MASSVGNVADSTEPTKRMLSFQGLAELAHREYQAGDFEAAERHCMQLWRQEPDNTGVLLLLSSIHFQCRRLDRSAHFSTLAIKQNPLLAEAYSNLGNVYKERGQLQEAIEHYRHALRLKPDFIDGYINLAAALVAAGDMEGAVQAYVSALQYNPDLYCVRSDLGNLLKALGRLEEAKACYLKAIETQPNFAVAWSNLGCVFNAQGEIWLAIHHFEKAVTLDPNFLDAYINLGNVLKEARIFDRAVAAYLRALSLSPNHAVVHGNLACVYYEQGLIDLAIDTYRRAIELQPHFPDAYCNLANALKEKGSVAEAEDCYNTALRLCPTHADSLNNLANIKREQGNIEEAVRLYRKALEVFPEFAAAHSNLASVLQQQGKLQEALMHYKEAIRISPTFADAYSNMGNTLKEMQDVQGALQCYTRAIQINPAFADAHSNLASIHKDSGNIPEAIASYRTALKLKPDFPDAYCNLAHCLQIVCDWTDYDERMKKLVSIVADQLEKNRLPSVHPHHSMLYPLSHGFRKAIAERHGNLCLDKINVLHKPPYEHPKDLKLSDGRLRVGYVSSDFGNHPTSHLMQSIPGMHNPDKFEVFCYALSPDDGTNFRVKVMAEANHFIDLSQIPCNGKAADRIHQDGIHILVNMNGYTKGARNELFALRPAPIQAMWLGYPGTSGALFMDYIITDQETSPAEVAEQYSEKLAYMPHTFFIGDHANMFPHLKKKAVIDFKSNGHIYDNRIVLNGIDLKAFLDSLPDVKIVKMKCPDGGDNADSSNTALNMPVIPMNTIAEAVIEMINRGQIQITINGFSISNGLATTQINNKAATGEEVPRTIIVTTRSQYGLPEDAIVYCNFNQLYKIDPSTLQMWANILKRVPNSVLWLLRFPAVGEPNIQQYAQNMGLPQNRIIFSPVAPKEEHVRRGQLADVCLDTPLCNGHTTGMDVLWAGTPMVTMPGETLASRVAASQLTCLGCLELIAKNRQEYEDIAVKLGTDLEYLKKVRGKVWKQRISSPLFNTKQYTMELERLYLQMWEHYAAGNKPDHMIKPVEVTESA
Read-out: binding
Method: phage display NGS
Form: peptide
Concentration: concentration not given
Notes: panning round 4
Reference: input library
`DRLFLPAYQIQVFK`: “enrichment fold change” 1.89.
`TMTRDFTPKYQIMVK` — result for “enrichment fold change”: 4.7.
`NQYQPQYQILQAANR`: “enrichment fold change” 1.62.

For quick reference, copied from above (series 2):
`PTARKRLLFDLDT [R5K H9F]`: “normalised enrichment score” 1.41.
`PTARRRLLFDLDT [H9F]`: “normalised enrichment score” 1.45.
Under “normalised enrichment score”, `PTARRRLLHDLDA [T13A]` is recorded as 0.387.
